Assay results of several laboratories.
Compare with care: the assays were run in different laboratories. Numbers after ± are the reported error.
Melanocortin receptor 5: Melanocortin receptor 5 (Mus musculus, UniProt P41149)
Chain of UniProt P41149 (whole entry, looked up): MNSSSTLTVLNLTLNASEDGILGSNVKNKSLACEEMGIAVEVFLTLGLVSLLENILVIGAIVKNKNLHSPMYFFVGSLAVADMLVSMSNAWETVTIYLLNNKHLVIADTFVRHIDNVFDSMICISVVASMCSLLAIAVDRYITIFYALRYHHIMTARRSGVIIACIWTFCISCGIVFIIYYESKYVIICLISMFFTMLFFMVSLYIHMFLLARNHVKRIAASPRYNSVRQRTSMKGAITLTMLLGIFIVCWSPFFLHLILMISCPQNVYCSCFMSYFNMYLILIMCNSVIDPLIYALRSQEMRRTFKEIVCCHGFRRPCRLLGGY
lasR: Transcriptional activator protein LasR (lasR, Pseudomonas aeruginosa, UniProt P25084)
Chain of UniProt P25084 (whole entry, looked up): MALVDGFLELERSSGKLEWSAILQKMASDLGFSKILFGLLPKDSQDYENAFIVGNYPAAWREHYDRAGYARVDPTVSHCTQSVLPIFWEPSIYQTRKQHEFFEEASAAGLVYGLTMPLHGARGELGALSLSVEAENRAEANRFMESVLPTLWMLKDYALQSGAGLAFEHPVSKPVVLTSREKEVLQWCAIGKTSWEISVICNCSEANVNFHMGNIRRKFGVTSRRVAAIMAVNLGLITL
Chain of UniProt P30969 (whole entry, looked up): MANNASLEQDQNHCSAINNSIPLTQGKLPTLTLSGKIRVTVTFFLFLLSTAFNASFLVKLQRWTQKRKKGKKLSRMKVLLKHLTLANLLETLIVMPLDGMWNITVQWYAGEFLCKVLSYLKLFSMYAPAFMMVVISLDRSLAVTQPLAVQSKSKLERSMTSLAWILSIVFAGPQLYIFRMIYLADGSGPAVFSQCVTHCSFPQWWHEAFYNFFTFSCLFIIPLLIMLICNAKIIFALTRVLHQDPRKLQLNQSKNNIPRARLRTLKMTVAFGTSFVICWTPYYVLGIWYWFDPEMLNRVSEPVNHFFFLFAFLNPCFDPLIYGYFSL
Chain of UniProt P36542 (whole entry, looked up): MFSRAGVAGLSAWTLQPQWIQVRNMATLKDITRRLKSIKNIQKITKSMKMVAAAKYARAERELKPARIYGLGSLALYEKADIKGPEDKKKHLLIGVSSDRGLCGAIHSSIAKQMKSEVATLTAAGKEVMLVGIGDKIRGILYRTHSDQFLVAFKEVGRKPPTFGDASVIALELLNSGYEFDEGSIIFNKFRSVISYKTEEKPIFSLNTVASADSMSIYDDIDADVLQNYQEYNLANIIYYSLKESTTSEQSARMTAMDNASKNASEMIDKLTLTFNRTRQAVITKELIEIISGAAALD
Chain of UniProt P25705 (whole entry, looked up): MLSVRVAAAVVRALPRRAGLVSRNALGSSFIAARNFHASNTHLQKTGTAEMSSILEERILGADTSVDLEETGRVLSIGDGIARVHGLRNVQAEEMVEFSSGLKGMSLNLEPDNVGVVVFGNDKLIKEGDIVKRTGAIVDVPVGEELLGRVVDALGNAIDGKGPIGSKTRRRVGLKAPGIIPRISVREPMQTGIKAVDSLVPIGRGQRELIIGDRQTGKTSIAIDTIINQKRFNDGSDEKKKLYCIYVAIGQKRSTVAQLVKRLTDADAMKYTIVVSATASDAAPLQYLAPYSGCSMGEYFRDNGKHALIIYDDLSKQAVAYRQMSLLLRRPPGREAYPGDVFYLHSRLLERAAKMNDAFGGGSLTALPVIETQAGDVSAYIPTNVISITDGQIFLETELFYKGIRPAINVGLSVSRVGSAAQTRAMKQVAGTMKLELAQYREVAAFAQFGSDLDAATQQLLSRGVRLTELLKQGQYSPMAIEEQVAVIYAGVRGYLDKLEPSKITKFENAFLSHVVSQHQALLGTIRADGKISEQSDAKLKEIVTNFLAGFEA
Chain of UniProt P06576 (whole entry, looked up): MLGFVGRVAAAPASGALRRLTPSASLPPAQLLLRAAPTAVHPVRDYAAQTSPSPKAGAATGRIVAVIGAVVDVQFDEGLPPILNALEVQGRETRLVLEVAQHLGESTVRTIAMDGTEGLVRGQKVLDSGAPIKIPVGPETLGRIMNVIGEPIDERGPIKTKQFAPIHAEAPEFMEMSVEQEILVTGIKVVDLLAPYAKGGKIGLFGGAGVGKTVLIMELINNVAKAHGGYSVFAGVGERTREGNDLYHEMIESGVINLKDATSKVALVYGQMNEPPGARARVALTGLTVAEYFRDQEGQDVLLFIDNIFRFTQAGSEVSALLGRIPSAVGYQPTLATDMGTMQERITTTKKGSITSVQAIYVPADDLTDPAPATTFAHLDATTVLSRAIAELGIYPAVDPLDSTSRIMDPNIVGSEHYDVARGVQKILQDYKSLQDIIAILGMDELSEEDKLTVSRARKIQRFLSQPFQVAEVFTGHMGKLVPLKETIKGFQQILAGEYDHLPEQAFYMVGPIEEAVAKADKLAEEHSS
Chain of UniProt P42866 (whole entry, looked up): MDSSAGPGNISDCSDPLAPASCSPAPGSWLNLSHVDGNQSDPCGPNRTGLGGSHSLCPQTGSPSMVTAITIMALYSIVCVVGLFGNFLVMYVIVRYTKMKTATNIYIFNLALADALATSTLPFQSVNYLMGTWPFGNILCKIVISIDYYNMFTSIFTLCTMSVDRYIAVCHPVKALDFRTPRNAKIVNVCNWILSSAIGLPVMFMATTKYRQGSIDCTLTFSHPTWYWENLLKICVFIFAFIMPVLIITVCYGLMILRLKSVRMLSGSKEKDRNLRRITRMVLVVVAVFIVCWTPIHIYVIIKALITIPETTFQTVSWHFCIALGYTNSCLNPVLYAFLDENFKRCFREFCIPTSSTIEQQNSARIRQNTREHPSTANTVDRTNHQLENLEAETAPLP

C[C@@H]1NC(=O)[C@H](CC(N)=O)N2C[C@H](Cc3c[nH]c4ccccc34)NC(=O)[C@@H](CSCC2=O)NC(=O)[C@H](CCCNC(=N)N)NC(=O)[C@@H](Cc2ccccc2)NC(=O)[C@H](Cc2c[nH]cn2)NC(=O)[C@@H](NC(=O)[C@@H](N)Cc2ccc(O)cc2)CSSC[C@@H](C(=O)N[C@@H](Cc2ccc(O)cc2)C(N)=O)NC(=O)[C@H](Cc2ccccc2)NC1=O — EC50 (Melanocortin receptor 5; reporter gene, agonist): 31 nM
O=C(NCc1cc(Br)cc(Br)c1OC(=O)c1ccccc1[N+](=O)[O-])c1ccccc1Cl — EC50 (lasR; reporter gene, agonist; Escherichia coli, JLD271 pJN105L pSC11): ~8 nM
C[C@H]1[C@H]2CCC[C@]1(c1cccc(O)c1)CCN2CCc1ccccc1 — EC50 (Mu-type opioid receptor (Oprm1, Mus musculus, UniProt P42866); GTPγS binding, agonist, radiometric; cell membranes): 7.44 nM
CC(C)C[C@H](NC(=O)[C@@H](CCCNC(=N)N)NC(=O)[C@H](Cc1c[nH]cn1)NC(=O)[C@H](CO)NC(=O)[C@H](Cc1c[nH]c2ccccc12)NC(=O)[C@H](Cc1c[nH]cn1)NC(=O)[C@@H]1CCC(=O)N1)C(=O)N[C@@H](CCCNC(=N)N)C(=O)N1CCC[C@H]1C(=O)NCC(N)=O — EC50 (Gonadotropin-releasing hormone receptor (Rattus norvegicus, UniProt P30969); inositol phosphate accumulation, agonist; HEK293 expressing Gonadotropin-releasing hormone receptor; 60 min, 37 °C, added: 10 mM LiCl): 45 ± 6.9 nM
O=C(CCCCCCCCCN=C=S)CC(=O)N[C@H]1CCOC1=O — EC50 (lasR; reporter gene, agonist; Escherichia coli, JLD271 with LasR plasmid): 17 nM
CS(=O)(=O)c1cccc(OCCCC(=O)NC2CC3CC3C2O)c1 (centres unmarked) — EC50 (lasR; reporter gene, agonist; Escherichia coli lasB-lux reporter): > 20000 nM
CC(=O)N[C@@H](CCCNC(=N)N)C(=O)N[C@@H](CCCNC(=N)N)C(=O)N[C@@H](C(=O)N1Cc2ccccc2C[C@H]1C(N)=O)[C@@H](c1ccccc1)c1c[nH]c2ccccc12 — EC50 (Melanocortin receptor 5; cAMP, agonist, AlphaScreen): 350 nM
CC(=O)N1CCCC[C@H]1C(=O)NC(C)(C)C(=O)N1CCCC[C@H]1C(=O)NC(C)(C)C(=O)NC(C)(C)C(=O)N[C@@H](CC(C)C)C(=O)NCCC(=O)N[C@@H](C)C(=O)NC(C)(C)C(=O)NC(C)(C)C(=O)N1CCCC[C@H]1C(=O)NC(C)(C)C(=O)NCC(=O)N[C@@H](CC(C)C)C(=O)NC(C)(C)C(=O)N[C@@H](CC(C)C)C[N+]1=C2CCCN2CCC1 — EC50 (ATP5F1B/ATP5F1A/ATP synthase F(1) complex subunit gamma, mitochondrial (Homo sapiens, UniProt P06576+P25705+P36542); ATP production, inhibitor; permeabilized MCF7): 1.2 ± 0.4 nM

Some of these lines once more:
C[C@@H]1NC(=O)[C@H](CC(N)=O)N2C[C@H](Cc3c[nH]c4ccccc34)NC(=O)[C@@H](CSCC2=O)NC(=O)[C@H](CCCNC(=N)N)NC(=O)[C@@H](Cc2ccccc2)NC(=O)[C@H](Cc2c[nH]cn2)NC(=O)[C@@H](NC(=O)[C@@H](N)Cc2ccc(O)cc2)CSSC[C@@H](C(=O)N[C@@H](Cc2ccc(O)cc2)C(N)=O)NC(=O)[C@H](Cc2ccccc2)NC1=O — EC50 (Melanocortin receptor 5; reporter gene, agonist): 31 nM
